Measurements pooled from the literature.
Parts stem from different laboratories: compare values within a part only.

Set 1 — method: protein-binding microarray; molecule type: double-stranded DNA, one strand shown; sample: in vitro; concentration: 2200 nM top; notes: 60-bp whole probe; together with: salmon DNA 0.4 mg/ml; relative to: random background probes; reading: higher = stronger binding
Target: Interferon regulatory factor 7, full length, phosphomimetic (IRF7, Homo sapiens, UniProt Q92985, residues 1-503, S471D/S472D/S475D/S476D/S477D/S483D/S484D/S487D)
UniProt Q92985, sequence (whole entry, unmodified, looked up): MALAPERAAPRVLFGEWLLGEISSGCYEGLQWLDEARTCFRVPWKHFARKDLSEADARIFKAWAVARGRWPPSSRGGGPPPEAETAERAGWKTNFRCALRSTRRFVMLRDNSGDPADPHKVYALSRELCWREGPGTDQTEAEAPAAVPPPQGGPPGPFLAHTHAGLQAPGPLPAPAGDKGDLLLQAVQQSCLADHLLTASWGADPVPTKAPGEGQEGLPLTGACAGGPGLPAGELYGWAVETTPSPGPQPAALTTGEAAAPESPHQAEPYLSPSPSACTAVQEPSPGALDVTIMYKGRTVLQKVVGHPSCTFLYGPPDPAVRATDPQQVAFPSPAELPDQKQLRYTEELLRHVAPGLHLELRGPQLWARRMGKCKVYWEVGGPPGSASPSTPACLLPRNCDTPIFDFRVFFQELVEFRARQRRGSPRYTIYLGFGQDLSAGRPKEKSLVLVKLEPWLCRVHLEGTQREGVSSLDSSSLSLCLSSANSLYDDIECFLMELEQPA
| Oligonucleotide | fitted relative affinity [z-score] |
| --- | --- |
| GCCTAGCACAGGCATGTGGGTTCCATCATGTGCTAGGTCTTGATTCGCTTGACGCTGCTG | -0.0896 |
| GCCTAGCACTCATGTCAACTTTCTCTGACTGTGCTAGTCTTGATTCGCTTGACGCTGCTG | 1.06 |
| GCCTAGCACATAGGTCTCGGACTGGGTTAGTGCTAGGTCTTGATTCGCTTGACGCTGCTG | -0.0781 |

Set 2 — method: protein binding microarray; molecule type: double-stranded DNA, one strand shown; sample: in vitro; concentration: not given; relative to: not given; reading: higher = stronger binding
Target: Histone acetyltransferase KAT6A, both winged helices, GST fusion (KAT6A, Homo sapiens, UniProt Q92794, residues 1-181)
Notes: 8-mer, flanks averaged, mean of 2 arrays, mostly near background
Construct (chain): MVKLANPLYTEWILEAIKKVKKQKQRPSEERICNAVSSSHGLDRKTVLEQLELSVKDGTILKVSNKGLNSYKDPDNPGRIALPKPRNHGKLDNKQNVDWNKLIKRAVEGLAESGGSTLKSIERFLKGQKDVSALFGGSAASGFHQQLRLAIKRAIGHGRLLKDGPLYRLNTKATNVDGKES
| Oligonucleotide | E-score |
| --- | --- |
| CTCAGAAG | -0.139 |
| GAAGAAGA | 0.00302 |
| AGTTTCTA | -0.0879 |
| AGTAGCTG | -0.268 |

Set 3 — method: competition protein-binding microarray; molecule type: double-stranded DNA, one strand shown; sample: in vitro; concentration: 2 µM; together with: Pho4 competitor, 0.05 µM; reading: higher = stronger binding; constant ends, left off below: … GTCTTGATTCGCTTGACGCTGCTG
Target: Centromere-binding protein 1, full length, His-tagged (CBF1, Saccharomyces cerevisiae, UniProt P17106, residues 1-351)
UniProt P17106, sequence (whole entry, looked up): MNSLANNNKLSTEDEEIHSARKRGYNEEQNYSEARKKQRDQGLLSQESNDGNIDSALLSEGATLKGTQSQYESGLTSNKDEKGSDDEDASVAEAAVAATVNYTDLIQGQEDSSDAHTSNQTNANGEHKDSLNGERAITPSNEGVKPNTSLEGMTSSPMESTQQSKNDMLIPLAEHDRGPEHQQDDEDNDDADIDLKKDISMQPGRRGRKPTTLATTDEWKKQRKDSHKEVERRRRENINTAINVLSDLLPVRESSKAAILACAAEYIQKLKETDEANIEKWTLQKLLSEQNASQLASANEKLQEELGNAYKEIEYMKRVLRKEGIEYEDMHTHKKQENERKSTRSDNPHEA
Notes: whole 60-bp probe, lowest competitor level
| Oligonucleotide | fluorescence intensity [a.u.] |
| --- | --- |
| GTCTTGTCTCATTGGATAGTGGGTGTCCCCACTTCA | 79 |
| CTGTCCATAACTTCTCTCGTGACTCGGCCAAGGATG | 395 |
| TCCCAAGGCCACCGTCACGATTGAAGGTTCCCGGTC | 63.9 |
| CTAACGAAGGTTTGGTTTGTGGGTGACAAGCCAAGT | 84.5 |
| CCACATCTGTCTCTCAATGGTCAAATACCGTTTTAA | 59.8 |

Further values, each from its own experiment
| Molecule | target | assay | system | setting | how to read | quantity | result |
| --- | --- | --- | --- | --- | --- | --- | --- |
| PhoQ, residues 284 288 289 292 302 303 AAQSYM | PhoP, residues 12 14 15 18 19 DLLYY (Escherichia coli, UniProt P23836) | Sort-seq, refers to: YFP reporter | E. coli | PhoQ-PhoP variant library, together with: 10 µM Mg2+ | relative to: high Mg2+ state, higher = stronger signaling | fold induction | 2.07 |

A few entries again (set 2):
| Oligonucleotide | E-score |
| --- | --- |
| AGTTTCTA | -0.0879 |
